# Measurements from different studies.
# Every numbered part comes from another study and shows a few of its results, in no order. Values joined by “and” are separate records of one study, mostly repeats; a detail may differ.
# Chain of UniProt Q8NE63 (whole entry, looked up): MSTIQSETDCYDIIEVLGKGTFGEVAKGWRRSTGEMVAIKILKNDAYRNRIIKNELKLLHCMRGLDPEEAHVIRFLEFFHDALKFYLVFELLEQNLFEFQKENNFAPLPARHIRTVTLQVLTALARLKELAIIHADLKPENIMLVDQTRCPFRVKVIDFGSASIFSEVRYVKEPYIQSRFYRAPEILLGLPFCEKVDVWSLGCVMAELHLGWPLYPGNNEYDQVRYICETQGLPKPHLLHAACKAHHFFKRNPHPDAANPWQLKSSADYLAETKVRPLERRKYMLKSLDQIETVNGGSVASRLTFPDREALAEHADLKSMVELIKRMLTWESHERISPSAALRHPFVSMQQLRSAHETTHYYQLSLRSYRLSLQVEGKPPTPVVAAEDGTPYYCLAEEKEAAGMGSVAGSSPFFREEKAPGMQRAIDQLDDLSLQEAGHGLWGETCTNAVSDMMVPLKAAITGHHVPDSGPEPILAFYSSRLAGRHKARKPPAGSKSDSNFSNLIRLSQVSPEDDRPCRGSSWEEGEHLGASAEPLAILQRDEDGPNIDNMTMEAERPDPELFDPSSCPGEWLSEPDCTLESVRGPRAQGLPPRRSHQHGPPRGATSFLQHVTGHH
# Chain of UniProt Q9H2X6 (whole entry, looked up): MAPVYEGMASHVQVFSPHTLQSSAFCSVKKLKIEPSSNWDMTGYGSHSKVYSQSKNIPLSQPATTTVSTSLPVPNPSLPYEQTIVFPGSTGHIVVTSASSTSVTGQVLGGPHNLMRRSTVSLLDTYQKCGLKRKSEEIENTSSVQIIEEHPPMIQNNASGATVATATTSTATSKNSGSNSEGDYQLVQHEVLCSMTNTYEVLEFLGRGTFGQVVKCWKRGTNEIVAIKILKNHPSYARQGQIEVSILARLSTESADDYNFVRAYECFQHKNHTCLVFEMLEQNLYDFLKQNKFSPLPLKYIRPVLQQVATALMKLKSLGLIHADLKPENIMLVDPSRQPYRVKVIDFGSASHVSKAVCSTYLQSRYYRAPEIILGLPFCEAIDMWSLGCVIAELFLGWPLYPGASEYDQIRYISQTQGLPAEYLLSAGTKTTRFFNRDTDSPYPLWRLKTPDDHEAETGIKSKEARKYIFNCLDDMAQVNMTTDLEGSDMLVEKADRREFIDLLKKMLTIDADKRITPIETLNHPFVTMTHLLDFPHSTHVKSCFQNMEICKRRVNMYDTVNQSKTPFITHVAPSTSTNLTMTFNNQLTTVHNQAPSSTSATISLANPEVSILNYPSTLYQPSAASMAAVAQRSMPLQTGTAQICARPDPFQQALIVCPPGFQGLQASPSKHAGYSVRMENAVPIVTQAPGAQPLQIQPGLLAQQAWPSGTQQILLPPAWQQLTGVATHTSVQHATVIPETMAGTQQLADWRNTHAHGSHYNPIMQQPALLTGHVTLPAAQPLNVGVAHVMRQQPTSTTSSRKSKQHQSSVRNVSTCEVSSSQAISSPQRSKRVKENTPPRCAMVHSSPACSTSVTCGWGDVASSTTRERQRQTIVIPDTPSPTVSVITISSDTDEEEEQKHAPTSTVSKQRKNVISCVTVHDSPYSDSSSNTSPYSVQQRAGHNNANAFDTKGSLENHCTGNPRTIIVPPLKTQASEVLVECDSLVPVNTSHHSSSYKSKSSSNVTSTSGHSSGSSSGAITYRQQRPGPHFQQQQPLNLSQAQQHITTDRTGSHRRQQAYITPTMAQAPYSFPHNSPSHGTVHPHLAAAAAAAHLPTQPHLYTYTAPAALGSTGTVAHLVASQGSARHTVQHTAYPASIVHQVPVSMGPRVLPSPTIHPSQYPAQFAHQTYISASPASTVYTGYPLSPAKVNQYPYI
# Chain of UniProt P30530 (whole entry, looked up): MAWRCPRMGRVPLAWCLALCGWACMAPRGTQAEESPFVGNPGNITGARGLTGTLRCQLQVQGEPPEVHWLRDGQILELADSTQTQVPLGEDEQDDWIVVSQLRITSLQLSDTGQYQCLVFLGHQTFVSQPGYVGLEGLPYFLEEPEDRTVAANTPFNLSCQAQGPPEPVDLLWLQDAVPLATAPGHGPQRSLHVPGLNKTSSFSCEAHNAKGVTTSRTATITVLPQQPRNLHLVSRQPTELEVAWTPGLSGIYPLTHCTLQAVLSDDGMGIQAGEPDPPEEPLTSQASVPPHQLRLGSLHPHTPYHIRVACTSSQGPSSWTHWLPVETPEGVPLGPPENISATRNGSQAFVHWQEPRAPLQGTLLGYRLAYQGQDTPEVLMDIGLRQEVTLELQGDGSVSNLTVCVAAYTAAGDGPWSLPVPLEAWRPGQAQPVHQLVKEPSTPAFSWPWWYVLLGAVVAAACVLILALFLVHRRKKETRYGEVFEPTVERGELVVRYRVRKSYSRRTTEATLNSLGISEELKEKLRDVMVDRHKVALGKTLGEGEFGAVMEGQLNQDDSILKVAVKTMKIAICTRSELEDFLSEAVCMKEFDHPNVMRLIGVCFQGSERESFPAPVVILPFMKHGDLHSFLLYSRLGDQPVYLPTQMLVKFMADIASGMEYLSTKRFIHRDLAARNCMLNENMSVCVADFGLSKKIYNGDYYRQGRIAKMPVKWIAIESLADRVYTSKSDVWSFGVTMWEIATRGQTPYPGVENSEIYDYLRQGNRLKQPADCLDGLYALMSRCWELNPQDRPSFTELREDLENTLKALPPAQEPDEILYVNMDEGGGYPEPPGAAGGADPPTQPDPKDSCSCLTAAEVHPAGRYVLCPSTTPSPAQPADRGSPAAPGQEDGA
# Chain of UniProt P22612 (whole entry, looked up): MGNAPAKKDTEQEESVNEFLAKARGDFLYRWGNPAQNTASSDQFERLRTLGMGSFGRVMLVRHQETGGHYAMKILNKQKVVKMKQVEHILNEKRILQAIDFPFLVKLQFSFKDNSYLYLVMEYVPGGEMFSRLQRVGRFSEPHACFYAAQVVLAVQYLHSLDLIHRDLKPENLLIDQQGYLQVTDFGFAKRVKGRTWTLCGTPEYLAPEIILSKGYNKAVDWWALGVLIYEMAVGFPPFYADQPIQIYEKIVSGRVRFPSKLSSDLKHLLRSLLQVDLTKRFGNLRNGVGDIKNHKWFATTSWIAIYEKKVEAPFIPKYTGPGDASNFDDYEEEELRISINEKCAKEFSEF
# Chain of UniProt Q16644 (whole entry, looked up): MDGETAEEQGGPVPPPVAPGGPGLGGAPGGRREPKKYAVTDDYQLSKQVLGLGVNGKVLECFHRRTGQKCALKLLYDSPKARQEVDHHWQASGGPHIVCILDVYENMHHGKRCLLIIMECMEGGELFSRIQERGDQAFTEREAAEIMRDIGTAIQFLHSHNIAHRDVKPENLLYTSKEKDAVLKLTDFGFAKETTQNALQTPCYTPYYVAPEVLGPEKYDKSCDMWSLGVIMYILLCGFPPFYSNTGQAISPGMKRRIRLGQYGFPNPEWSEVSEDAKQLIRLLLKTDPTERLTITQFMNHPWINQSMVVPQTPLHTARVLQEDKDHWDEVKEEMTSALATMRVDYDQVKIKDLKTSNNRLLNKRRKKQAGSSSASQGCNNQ
# Chain of UniProt Q13554 (whole entry, looked up): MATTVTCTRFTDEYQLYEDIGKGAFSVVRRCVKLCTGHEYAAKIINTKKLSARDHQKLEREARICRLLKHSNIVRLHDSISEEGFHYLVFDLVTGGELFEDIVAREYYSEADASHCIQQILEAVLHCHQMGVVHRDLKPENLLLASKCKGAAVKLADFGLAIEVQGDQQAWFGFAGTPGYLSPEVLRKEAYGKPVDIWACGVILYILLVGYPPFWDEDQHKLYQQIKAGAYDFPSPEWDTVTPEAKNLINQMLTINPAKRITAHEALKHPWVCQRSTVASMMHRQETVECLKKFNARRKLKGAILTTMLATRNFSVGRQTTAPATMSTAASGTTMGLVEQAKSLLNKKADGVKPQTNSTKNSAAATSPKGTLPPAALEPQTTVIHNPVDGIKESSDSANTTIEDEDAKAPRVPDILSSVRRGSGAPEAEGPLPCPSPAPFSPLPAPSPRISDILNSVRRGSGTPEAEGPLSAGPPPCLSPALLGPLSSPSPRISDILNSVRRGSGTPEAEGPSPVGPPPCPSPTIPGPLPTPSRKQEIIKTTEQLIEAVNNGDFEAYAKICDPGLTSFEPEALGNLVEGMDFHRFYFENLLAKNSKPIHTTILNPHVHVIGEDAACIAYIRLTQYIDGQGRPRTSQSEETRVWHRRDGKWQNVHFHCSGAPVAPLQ
# Chain of UniProt P06493 (whole entry, looked up): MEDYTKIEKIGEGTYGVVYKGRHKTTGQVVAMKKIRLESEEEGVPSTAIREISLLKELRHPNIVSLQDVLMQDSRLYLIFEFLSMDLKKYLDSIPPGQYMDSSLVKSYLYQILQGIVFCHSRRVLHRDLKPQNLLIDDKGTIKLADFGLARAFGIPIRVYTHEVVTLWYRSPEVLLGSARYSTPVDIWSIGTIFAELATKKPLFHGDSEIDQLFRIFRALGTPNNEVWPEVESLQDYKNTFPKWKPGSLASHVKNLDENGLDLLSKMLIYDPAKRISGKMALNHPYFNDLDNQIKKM

# Set 1
# Organism: Sarcocystis neurona
# Read-out: parasite growth
# Tested at: 10 µM
Structure (SMILES),inhibition [%]
Cc1cnc(NC(=O)C2=C(O)c3ccccc3S(=O)(=O)N2C)s1,-34
COCCOC(=O)C1=C(C)NC(C)=C(C(=O)OC(C)C)C1c1cccc([N+](=O)[O-])c1 (stereo not shown),-22.7
Cc1nc2ccc(CN(C)c3ccc(C(=O)N[C@@H](CCC(=O)O)C(=O)O)s3)cc2c(=O)[nH]1,-25.7
Cl.NC[C@H](O)c1ccc(O)c(O)c1,-30.4
COC(=O)C1=C(C)NC(C)=C(C(=O)O[C@@H]2CCCN(Cc3ccccc3)C2)[C@@H]1c1cccc([N+](=O)[O-])c1.Cl (racemic),12.6
C[C@H]1COc2c(N3CCN(C)CC3)c(F)cc3c(=O)c(C(=O)O)cn1c23,5.7

# Set 2
# SMILES: c1ccc2c(-c3ccncc3)c[nH]c2c1
# Read-out: enzyme activity
# Action: inhibitor
# Tested at: 0.5 µM
# Relative to: control
target,remaining activity
"Ephrin type-B receptor 1 (EPHB1, Homo sapiens, UniProt P54762)",108%
"Mitogen-activated protein kinase kinase kinase kinase 4 (MAP4K4, Homo sapiens, UniProt O95819)",54.4%
"Cyclin-dependent kinase 1, with cyclin B (CDK1, Homo sapiens, UniProt P06493)",96%
"Tyrosine-protein kinase receptor UFO (AXL, Homo sapiens, UniProt P30530)",99.8%
"MAP kinase-activated protein kinase 3 (MAPKAPK3, Homo sapiens, UniProt Q16644)",97.8%
"3-phosphoinositide-dependent protein kinase 1 (PDPK1, Homo sapiens, UniProt O15530)",96.6%
"Serine/threonine-protein kinase 16 (STK16, Homo sapiens, UniProt O75716)",110%
"Cyclin-dependent kinase 6, with cyclin D3 (CDK6, Homo sapiens, UniProt Q00534)",101%
"Dual specificity tyrosine-phosphorylation-regulated kinase 3 (DYRK3, Homo sapiens, UniProt O43781)",101%
"Tyrosine-protein kinase ABL1 (ABL1, Homo sapiens, UniProt P00519)",98.8%
"Serine/threonine-protein kinase 17A (STK17A, Homo sapiens, UniProt Q9UEE5)",93%
"Ephrin type-B receptor 4 (EPHB4, Homo sapiens, UniProt P54760)",89.7%
"Cyclin-dependent kinase 4, with cyclin D3 (CDK4, Homo sapiens, UniProt P11802)",102%
"Ribosomal protein S6 kinase alpha-5 (RPS6KA5, Homo sapiens, UniProt O75582)",96.7%
"Ephrin type-A receptor 4 (EPHA4, Homo sapiens, UniProt P54764)",108%
"Serine/threonine-protein kinase WNK3 (WNK3, Homo sapiens, UniProt Q9BYP7)",100%
"Tyrosine-protein kinase Blk (BLK, Homo sapiens, UniProt P51451)",99.6%
"Tyrosine-protein kinase Srms (SRMS, Homo sapiens, UniProt Q9H3Y6)",107%
"Homeodomain-interacting protein kinase 4 (HIPK4, Homo sapiens, UniProt Q8NE63)",93.8%
"cAMP-dependent protein kinase catalytic subunit gamma (PRKACG, Homo sapiens, UniProt P22612)",107%
"Homeodomain-interacting protein kinase 2 (HIPK2, Homo sapiens, UniProt Q9H2X6)",94.1%
"Calcium/calmodulin-dependent protein kinase type II subunit beta (CAMK2B, Homo sapiens, UniProt Q13554)",90.5%
"Testis-specific serine/threonine-protein kinase 2 (TSSK2, Homo sapiens, UniProt Q96PF2)",96.9%
"Ribosomal protein S6 kinase alpha-6 (RPS6KA6, Homo sapiens, UniProt Q9UK32)",112%

# Set 3
# Target: Alpha-2C adrenergic receptor (ADRA2C, Homo sapiens, UniProt P18825)
# Chain of UniProt P18825 (whole entry, looked up): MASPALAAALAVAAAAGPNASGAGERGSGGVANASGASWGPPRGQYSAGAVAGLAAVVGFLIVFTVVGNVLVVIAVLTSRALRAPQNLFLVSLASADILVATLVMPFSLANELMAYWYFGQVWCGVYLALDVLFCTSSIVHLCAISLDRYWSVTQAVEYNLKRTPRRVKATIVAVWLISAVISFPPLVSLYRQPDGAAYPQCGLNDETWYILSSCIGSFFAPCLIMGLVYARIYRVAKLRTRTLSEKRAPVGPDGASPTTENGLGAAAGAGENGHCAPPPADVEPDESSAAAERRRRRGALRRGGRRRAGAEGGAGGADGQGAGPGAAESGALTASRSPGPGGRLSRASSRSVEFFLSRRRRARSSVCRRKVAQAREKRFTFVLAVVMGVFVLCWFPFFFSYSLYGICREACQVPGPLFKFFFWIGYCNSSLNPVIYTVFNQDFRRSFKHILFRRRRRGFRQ
# Read-out: ligand displacement
# Tested at: 10 µM
SMILES,inhibition [%]
CNC(=O)Nc1ccc2c(c1)CC[C@]21OC(=O)N(CC(=O)N(Cc2ccc(F)cc2)[C@@H](C)C(F)(F)F)C1=O,20.7
CN1CCN(C(=O)C(C)(C)c2ccc(C(=O)Nc3cn4cc(-c5cc(C(C)(C)C)cc(C(C)(C)C)c5)ccc4n3)cc2)CC1,88.5
COCCOc1nc(-c2ccc(Cl)nc2)nc2c1CN(C(=O)c1ncn3ccccc13)CC2,1.3
CN([C@@H]1CCc2c(CC(=O)O)c3ccccc3n2C1)S(=O)(=O)c1ccc(F)cc1,-3.1
Cn1nc(C(=O)NCc2ccc(C(=O)O)cc2)cc1-c1ccc2[nH]ccc2c1,-7.92
Cn1cc(Cl)c2c(Oc3c(F)cc(Nc4cc(Cl)nc(N)n4)cc3F)ccnc21,-6.8
COc1ccc2cc(OCC3(C(=O)O)CN(C(=O)c4ccc(F)cc4)C3)ccc2c1,9.72
CC[C@H](CC(=O)O)n1c(=O)c2ncccc2n(Cc2cn(C)c3cc(C)cc(C)c23)c1=O,13.8
COc1cc(-c2cn(C3CCc4c(F)cccc4N(CC(F)(F)F)C3=O)nn2)ccc1-n1cnc(C)c1 (stereo not shown),38.3
O=C(Nc1ccc(Oc2ccc(F)cc2)cc1)N1CCc2ncccc2[C@H]1c1ccc(F)cc1,8.47
C[C@@H](c1cccc(C#N)c1)n1cc(Cl)cc(C(N)=O)c1=N,3.93
Cc1ccc(-c2cnc([C@@]3(O)CC[C@H](C(=O)O)C(C)(C)C3)s2)cc1Nc1cccc(C(F)(F)F)n1,11.9
CCC(=NO)C(C)=Cc1ccc(F)c(C)c1,15.7
COc1cccc(NC(=O)c2nc3scc(CN(C)Cc4ccccc4)c3c(=O)[nH]2)c1,16.3
Cc1noc([C@H]2C[C@@H](c3ccc(C(F)(F)F)cc3)CN(C(=O)N3CCS(=O)(=O)C3)C2)n1,10.5

# Other studies, line by line
# KRAS G13D: GTPase KRas (KRAS, Homo sapiens, UniProt P01116, G13D)
Structure (SMILES),target or system,assay,conditions,how to read,endpoint,result
Ic1ccc(Nc2nc(NCCN3CCOCC3)nc(N3CCOCC3)n2)cc1,Gaucher fibroblasts L444P/L444P,"4-MUG hydrolysis, cell lysate","1 µM, 72 h, with: ISRIB",relative to: vehicle,GCase activity,133% and 148% and 169% and 145% and 151% and 143% and 135% and 116%
CCC(=O)N1CCN(c2nc(OC[C@@H]3CCCN3C)nc3c2CCN(c2cccc4cccc(Cl)c24)C3)C[C@@H]1CC#N,KRAS G13D,"target engagement in cells, BRET",,,IC50,1130 nM
c1ccc2c(-c3nn4c(-c5ccncc5)nnc4s3)c[nH]c2c1,Gaucher fibroblasts L444P/L444P,"4-MUG hydrolysis, cell lysate","0.5 µM, 72 h, with: ISRIB",relative to: vehicle,GCase activity,199% and 213% and 212% and 222% and 220% and 195% and 190% and 196%
CC(=O)N1CCN(c2nc(OC[C@@H]3CCCN3C)nc3c2CCN(c2cccc4cccc(Cl)c24)C3)C[C@@H]1CC#N,KRAS G13D,"target engagement in cells, BRET",,,IC50,1060 nM
